# Published values pooled from the literature.
# Numbers after ± are the reported error.
# PROK: Proteinase K (PROK, Engyodontium album, UniProt P06873)
# UniProt P06873, sequence (whole entry, looked up): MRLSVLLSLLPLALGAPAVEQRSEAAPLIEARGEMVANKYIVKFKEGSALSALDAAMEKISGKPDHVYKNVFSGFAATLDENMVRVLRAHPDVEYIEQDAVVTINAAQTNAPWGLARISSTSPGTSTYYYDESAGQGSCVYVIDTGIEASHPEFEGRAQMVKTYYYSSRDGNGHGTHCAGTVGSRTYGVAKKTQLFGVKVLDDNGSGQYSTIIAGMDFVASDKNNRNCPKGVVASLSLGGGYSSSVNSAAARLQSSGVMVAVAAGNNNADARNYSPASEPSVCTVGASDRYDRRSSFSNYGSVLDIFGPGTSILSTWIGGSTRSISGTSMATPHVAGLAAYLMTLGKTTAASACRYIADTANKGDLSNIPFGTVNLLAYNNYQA
# CYP1A2: Cytochrome P450 1A2 (CYP1A2, Homo sapiens, UniProt P05177)
# UniProt P05177, sequence (whole entry, looked up): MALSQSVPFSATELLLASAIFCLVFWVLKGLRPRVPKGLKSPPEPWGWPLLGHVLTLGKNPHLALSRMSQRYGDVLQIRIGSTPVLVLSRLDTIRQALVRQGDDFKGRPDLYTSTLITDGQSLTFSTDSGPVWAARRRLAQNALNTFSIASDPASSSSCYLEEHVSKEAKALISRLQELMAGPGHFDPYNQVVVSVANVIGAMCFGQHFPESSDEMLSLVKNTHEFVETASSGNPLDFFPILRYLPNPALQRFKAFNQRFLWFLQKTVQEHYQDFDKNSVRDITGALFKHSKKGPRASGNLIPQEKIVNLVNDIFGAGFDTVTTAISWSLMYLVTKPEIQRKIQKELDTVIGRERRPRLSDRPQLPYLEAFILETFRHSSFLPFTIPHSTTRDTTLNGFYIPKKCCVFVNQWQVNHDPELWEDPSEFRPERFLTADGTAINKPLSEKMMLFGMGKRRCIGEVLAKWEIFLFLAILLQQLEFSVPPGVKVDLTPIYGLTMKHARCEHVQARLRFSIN
# CYP2E1: Cytochrome P450 2E1 (CYP2E1, Homo sapiens, UniProt P05181)
# UniProt P05181, sequence (whole entry, looked up): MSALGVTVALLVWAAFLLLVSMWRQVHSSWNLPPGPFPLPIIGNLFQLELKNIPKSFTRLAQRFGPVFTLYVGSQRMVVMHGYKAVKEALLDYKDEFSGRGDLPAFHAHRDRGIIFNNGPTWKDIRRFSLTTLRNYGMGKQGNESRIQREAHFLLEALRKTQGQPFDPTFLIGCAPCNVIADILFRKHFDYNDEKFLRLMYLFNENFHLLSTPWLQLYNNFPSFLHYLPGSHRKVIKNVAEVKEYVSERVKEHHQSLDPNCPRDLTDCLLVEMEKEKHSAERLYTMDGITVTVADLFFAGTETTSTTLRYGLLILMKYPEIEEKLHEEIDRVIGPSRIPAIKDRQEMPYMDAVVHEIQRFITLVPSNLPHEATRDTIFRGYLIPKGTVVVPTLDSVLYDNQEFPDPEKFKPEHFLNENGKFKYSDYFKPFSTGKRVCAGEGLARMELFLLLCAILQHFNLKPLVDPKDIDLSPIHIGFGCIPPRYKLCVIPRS
# UniProt P28062, sequence (whole entry, looked up): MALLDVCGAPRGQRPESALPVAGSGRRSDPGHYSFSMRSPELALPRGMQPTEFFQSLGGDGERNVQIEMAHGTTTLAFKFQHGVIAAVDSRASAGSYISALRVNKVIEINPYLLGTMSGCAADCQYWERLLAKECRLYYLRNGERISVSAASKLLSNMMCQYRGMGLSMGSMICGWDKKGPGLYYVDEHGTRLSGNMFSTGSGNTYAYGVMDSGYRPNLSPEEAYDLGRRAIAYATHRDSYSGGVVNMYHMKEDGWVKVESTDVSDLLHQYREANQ
# UniProt P28065, sequence (whole entry, looked up): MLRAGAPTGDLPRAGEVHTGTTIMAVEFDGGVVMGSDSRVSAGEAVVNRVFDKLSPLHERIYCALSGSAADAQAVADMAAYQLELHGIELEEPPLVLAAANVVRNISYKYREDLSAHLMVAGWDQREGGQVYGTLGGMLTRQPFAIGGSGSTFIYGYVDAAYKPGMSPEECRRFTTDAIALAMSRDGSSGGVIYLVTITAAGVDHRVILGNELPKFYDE
# UniProt P00761, sequence (whole entry, looked up): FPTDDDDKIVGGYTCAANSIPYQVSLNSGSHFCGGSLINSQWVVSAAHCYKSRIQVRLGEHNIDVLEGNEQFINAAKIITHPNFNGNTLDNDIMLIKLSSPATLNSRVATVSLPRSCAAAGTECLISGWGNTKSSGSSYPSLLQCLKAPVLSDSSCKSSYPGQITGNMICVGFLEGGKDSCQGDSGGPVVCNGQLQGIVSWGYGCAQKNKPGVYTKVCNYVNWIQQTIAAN
# UniProt P40306, sequence (whole entry, looked up): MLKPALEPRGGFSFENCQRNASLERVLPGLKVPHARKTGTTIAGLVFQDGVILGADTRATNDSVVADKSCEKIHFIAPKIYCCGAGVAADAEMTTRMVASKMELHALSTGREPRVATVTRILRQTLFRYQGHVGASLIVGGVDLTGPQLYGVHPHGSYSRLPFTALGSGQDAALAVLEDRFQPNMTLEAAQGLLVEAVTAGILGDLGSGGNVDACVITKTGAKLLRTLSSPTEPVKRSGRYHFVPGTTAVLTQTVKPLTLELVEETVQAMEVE
# UniProt P48546, sequence (whole entry, looked up): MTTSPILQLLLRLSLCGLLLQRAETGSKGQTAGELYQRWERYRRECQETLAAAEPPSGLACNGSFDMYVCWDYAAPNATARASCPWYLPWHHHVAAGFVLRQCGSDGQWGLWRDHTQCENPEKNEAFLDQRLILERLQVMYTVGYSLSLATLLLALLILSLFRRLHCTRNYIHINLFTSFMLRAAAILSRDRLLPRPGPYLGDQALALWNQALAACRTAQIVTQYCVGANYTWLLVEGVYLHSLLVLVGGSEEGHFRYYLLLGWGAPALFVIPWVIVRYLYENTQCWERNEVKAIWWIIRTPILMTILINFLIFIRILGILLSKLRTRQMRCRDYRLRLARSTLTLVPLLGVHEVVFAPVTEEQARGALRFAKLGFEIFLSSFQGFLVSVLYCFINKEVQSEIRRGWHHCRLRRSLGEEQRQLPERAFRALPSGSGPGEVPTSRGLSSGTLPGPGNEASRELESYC
SMILES,target,assay,system,conditions,how to read,quantity,value
CCN(CC)CCOc1ccc(-c2nnn(Cc3ccc(OC)cc3)c2N)cc1,"SLC47A1 (Homo sapiens, UniProt Q96FL8)","transporter uptake, inhibitor",,,,IC50,1300 nM
CC[C@H](C)[C@H](NC(=O)[C@H](CO)NC(=O)[C@H](Cc1ccc(O)cc1)NC(=O)[C@H](CC(=O)O)NC(=O)[C@H](CO)NC(=O)[C@@H](NC(=O)[C@H](Cc1ccccc1)NC(=O)[C@@H](NC(=O)CNC(=O)[C@H](CCC(=O)O)NC(=O)N(C)NC(=O)[C@@H](N)Cc1ccc(O)cc1)[C@@H](C)O)[C@@H](C)CC)C(=O)N[C@@H](C)C(=O)N[C@@H](CCSC)C(=O)N[C@@H](CC(=O)O)C(=O)N[C@@H](CCCCN)C(=O)N[C@H](C(=O)N[C@@H](Cc1c[nH]cn1)C(=O)N[C@@H](CCC(N)=O)C(=O)N[C@@H](CCC(N)=O)C(=O)N[C@@H](CC(=O)O)C(=O)N[C@@H](Cc1ccccc1)C(=O)N[C@H](C(=O)N[C@@H](CC(N)=O)C(=O)N[C@@H](Cc1c[nH]c2ccccc12)C(=O)N[C@@H](CC(C)C)C(=O)N[C@@H](CC(C)C)C(=O)N[C@@H](C)C(=O)N[C@@H](CCC(N)=O)C(=O)N[C@@H](CCCCN)C(=O)NCC(=O)N[C@@H](CCCCN)C(=O)N[C@@H](CCCCN)C(=O)N[C@@H](CC(N)=O)C(=O)N[C@@H](CC(=O)O)C(=O)N[C@@H](Cc1c[nH]c2ccccc12)C(=O)N[C@@H](CCCCN)C(=O)N[C@@H](Cc1c[nH]cn1)C(=O)N[C@@H](CC(N)=O)C(=O)N[C@H](C(=O)N[C@H](C(=O)N[C@@H](CCC(N)=O)C(=O)O)[C@@H](C)O)[C@@H](C)CC)C(C)C)[C@@H](C)CC,"GIPR (Homo sapiens, UniProt P48546)",luciferase reporter gene,,"overnight, 37 °C, added: DPP4",reference: EC50 with over without DPP4,EC50 fold shift,1
CC[C@H](C)[C@H](NC(=O)[C@H](CCn1cc(COCCOCCOCCOC)nn1)NC(=O)[C@H](CC(N)=O)NC(=O)[C@H](Cc1ccccc1)NC(=O)[C@H](Cc1ccc(O)cc1)NC(=O)[C@H](Cc1ccc(O)cc1)NC(=O)[C@@H](NC(=O)[C@H](CCCNC(=N)N)NC(=O)CNC(=O)[C@H](CO)NC(=O)[C@H](CO)NC(=O)[C@H](CCCNC(=N)N)NC(=O)[C@H](CO)NC(=O)[C@H](CCSC)NC(=O)[C@H](CCCNC(=N)N)NC(=O)[C@H](CCCCN)NC(=O)[C@H](CCC(=O)O)NC(=O)[C@H](Cc1c[nH]c2ccccc12)NC(=O)CNC(=O)[C@@H]1CCCN1C(=O)[C@@H]1CCCN1C(=O)[C@H](CC(C)C)NC(=O)[C@@H](N)CCCCN)C(C)C)C(=O)N[C@H](C(=O)N[C@@H](CC(N)=O)C(=O)N[C@@H](C)C(=O)N[C@@H](CO)C(=O)N[C@@H](CCC(N)=O)C(=O)N[C@@H](Cc1ccccc1)C(=O)N[C@@H](CCC(=O)O)C(=O)N[C@@H](CCCNC(=N)N)C(=O)N1CCC[C@H]1C(=O)N[C@@H](CO)C(=O)NCC(=O)O)[C@@H](C)O,PROK,"proteolysis, substrate, HPLC",,room temperature,"reference: PEGylated over non-PEGylated variant, negative = more stable",ln rate constant ratio,0.6 ± 0.4
[64Cu+2].c1ccc(CNCc2ccc(CN3CCCNCCNCCCNCC3)cc2)nc1,CXCR4,,"NOD/SCID mouse, U87 and U87-stb-CXCR4 xenografts, stomach","iv, 90 min, no blocking dose, ex vivo",,tissue uptake,2.46 ± 0.15 %ID/g
CC[C@H](C)[C@H](NC(=O)[C@H](Cc1c[nH]cn1)NC(=O)[C@H](CC(N)=O)NC(=O)[C@H](Cc1ccccc1)NC(=O)[C@H](Cc1ccc(O)cc1)NC(=O)[C@H](CC(=O)N(CCOCCOCCOCCOC)CCOCCOCCOCCOC)NC(=O)[C@@H](NC(=O)[C@H](CCCNC(=N)N)NC(=O)CNC(=O)[C@H](CO)NC(=O)[C@H](CO)NC(=O)[C@H](CCCNC(=N)N)NC(=O)[C@H](CO)NC(=O)[C@H](CCSC)NC(=O)[C@H](CCCNC(=N)N)NC(=O)[C@H](CCCCN)NC(=O)[C@H](CCC(=O)O)NC(=O)[C@H](Cc1c[nH]c2ccccc12)NC(=O)CNC(=O)[C@@H]1CCCN1C(=O)[C@@H]1CCCN1C(=O)[C@H](CC(C)C)NC(=O)[C@@H](N)CCCCN)C(C)C)C(=O)N[C@H](C(=O)N[C@@H](CC(N)=O)C(=O)N[C@@H](C)C(=O)N[C@@H](CO)C(=O)N[C@@H](CCC(N)=O)C(=O)N[C@@H](Cc1ccccc1)C(=O)N[C@@H](CCC(=O)O)C(=O)N[C@@H](CCCNC(=N)N)C(=O)N1CCC[C@H]1C(=O)N[C@@H](CO)C(=O)NCC(=O)O)[C@@H](C)O,PROK,"proteolysis, substrate, HPLC",,room temperature,"reference: PEGylated over non-PEGylated variant, negative = more stable",ln rate constant ratio,-2.2 ± 0.3
CNC(=O)Oc1cc(C)c([S+](C)[O-])c(C)c1 (stereo not shown),CYP1A2,inhibitor,human liver microsomes,"2 µM, pH 7.4, added: phenacetin",,inhibition,1.52%
CC[C@H](C)[C@@H]1NC(=O)[C@H](C(C)C)NC(=O)[C@H](C(C)C)NC(=O)[C@H](CC(C)C)NC(=O)C[C@@H](C(=O)N[C@@H](Cc2c[nH]c3ccccc23)C(=O)N[C@@H](CC(N)=O)C(=O)N[C@@H](C)C(=O)N2CCC[C@H]2C(=O)NCC(=O)N[C@@H](Cc2c[nH]c3ccccc23)C(=O)N[C@@H](Cc2ccc(O)cc2)C(=O)O)NC(=O)[C@H](C)NC(=O)[C@H](CCC(N)=O)NC(=O)[C@H](C(C)C)NC1=O,carboxypeptidase Y,,,"12 h, pH 6.0, 28 °C",,proteolytic stability,stable
CC[C@@H]1CN2CCc3c([nH]c4cccc(OC)c34)[C@@H]2C[C@@H]1/C(=C\OC)C(=O)OC,CYP1A2,substrate,recombinant human enzyme,"2 µM, 60 min, pH 7.4",,remaining substrate,96%
CC[C@H](C)[C@H](NC(=O)[C@H](Cc1c[nH]cn1)NC(=O)[C@H](CC(N)=O)NC(=O)[C@H](Cc1ccccc1)NC(=O)[C@H](Cc1ccc(O)cc1)NC(=O)[C@H](Cc1ccc(O)cc1)NC(=O)[C@@H](NC(=O)[C@H](CCCNC(=N)N)NC(=O)CNC(=O)[C@H](CO)NC(=O)[C@H](CO)NC(=O)[C@H](CCCNC(=N)N)NC(=O)[C@H](CCC(=O)NCCOCCOCCOCCOC)NC(=O)[C@H](CCSC)NC(=O)[C@H](CCCNC(=N)N)NC(=O)[C@H](CCCCN)NC(=O)[C@H](CCC(=O)O)NC(=O)[C@H](Cc1c[nH]c2ccccc12)NC(=O)CNC(=O)[C@@H]1CCCN1C(=O)[C@@H]1CCCN1C(=O)[C@H](CC(C)C)NC(=O)[C@@H](N)CCCCN)C(C)C)C(=O)N[C@H](C(=O)N[C@@H](CC(N)=O)C(=O)N[C@@H](C)C(=O)N[C@@H](CO)C(=O)N[C@@H](CCC(N)=O)C(=O)N[C@@H](Cc1ccccc1)C(=O)N[C@@H](CCC(=O)O)C(=O)N[C@@H](CCCNC(=N)N)C(=O)N1CCC[C@H]1C(=O)N[C@@H](CO)C(=O)NCC(=O)O)[C@@H](C)O,PROK,"proteolysis, substrate, HPLC",,room temperature,"reference: PEGylated over non-PEGylated variant, negative = more stable",ln rate constant ratio,-1 ± 0.3
N=C(N)NCCC[C@H](NC(=O)[C@H](CCCNC(=N)N)NC(=O)[C@H](CCCNC(=N)N)NC(=O)[C@H](CCC(N)=O)NC(=O)[C@H](CCCNC(=N)N)NC(=O)[C@H](CCCNC(=N)N)NC(=O)[C@H](CCCCN)NC(=O)[C@H](CCCCN)NC(=O)[C@H](CCCNC(=N)N)NC(=O)CNC(=O)[C@H](Cc1ccc(O)cc1)NC(=O)CNC(=O)CNC(=O)[C@H](CCCCN)NC(=O)[C@H](CCCNC(=N)N)NC(=O)[C@H](CCC(N)=O)NC(=O)[C@H](CS)NC(=O)[C@H](CCC(N)=O)NC(=O)CNC(=O)[C@H](CC(N)=O)NC(=O)[C@@H](N)CCCNC(=N)N)C(N)=O,"Trypsin (Sus scrofa, UniProt P00761)",HPLC,,"concentration not given, 20 min, pH 8.0, 37 °C",,degradation,> 55%
CC[C@H](C)[C@H](NC(=O)[C@H](Cc1c[nH]cn1)NC(=O)[C@H](CC(N)=O)NC(=O)[C@H](Cc1ccccc1)NC(=O)[C@H](Cc1ccc(O)cc1)NC(=O)[C@H](CCn1cc(COCCOCCOCCOC)nn1)NC(=O)[C@@H](NC(=O)[C@H](CCCNC(=N)N)NC(=O)CNC(=O)[C@H](CO)NC(=O)[C@H](CO)NC(=O)[C@H](CCCNC(=N)N)NC(=O)[C@H](CO)NC(=O)[C@H](CCSC)NC(=O)[C@H](CCCNC(=N)N)NC(=O)[C@H](CCCCN)NC(=O)[C@H](CCC(=O)O)NC(=O)[C@H](Cc1c[nH]c2ccccc12)NC(=O)CNC(=O)[C@@H]1CCCN1C(=O)[C@@H]1CCCN1C(=O)[C@H](CC(C)C)NC(=O)[C@@H](N)CCCCN)C(C)C)C(=O)N[C@H](C(=O)N[C@@H](CC(N)=O)C(=O)N[C@@H](C)C(=O)N[C@@H](CO)C(=O)N[C@@H](CCC(N)=O)C(=O)N[C@@H](Cc1ccccc1)C(=O)N[C@@H](CCC(=O)O)C(=O)N[C@@H](CCCNC(=N)N)C(=O)N1CCC[C@H]1C(=O)N[C@@H](CO)C(=O)NCC(=O)O)[C@@H](C)O,PROK,"proteolysis, substrate, HPLC",,room temperature,"reference: PEGylated over non-PEGylated variant, negative = more stable",ln rate constant ratio,-0.4 ± 0.3
C=CCOCC=C,CYP2E1,enzyme activity,baculosomes,"1 h, pH 7.4, added: p-nitrophenol",,maximal inhibition,100%
CC(C)(O)c1ccccc1CC[C@H](c1cccc(/C=C/c2ccc3ccc(Cl)cc3n2)c1)S(=O)(=O)CC1(CC(=O)O)CC1,CYP1A2,inhibitor,human liver microsomes,"2 µM, pH 7.4, added: phenacetin",,inhibition,< 0%
Cc1cc(Br)c(O)c(Br)c1,CYP2E1,"p-nitrophenol hydroxylation, competitive inhibitor, Cheng-Prusoff from IC50",,added: p-nitrophenol,,Ki,1800 nM
CC(C)(O)c1ccccc1CC[C@H](c1cccc(/C=C/c2ccc3ccc(Cl)cc3n2)c1)[S+]([O-])CC1(CC(=O)O)CC1 (stereo partly shown),CYP1A2,inhibitor,human liver microsomes,"2 µM, pH 7.4, added: phenacetin",,inhibition,6.14%
CC[C@H](C)[C@H](NC(=O)[C@H](CCCNC(=N)N)NC(=O)[C@H](CCC(=O)O)NC(=O)[C@H](Cc1ccccc1)NC(=O)[C@H](CC(N)=O)NC(=O)CNC(=O)[C@H](C)NC(=O)[C@H](CCC(=O)O)NC(=O)[C@H](CCC(N)=O)NC(=O)[C@H](C)NC(=O)[C@H](CC(C)C)NC(=O)[C@@H](NC(=O)[C@H](C)NC(=O)[C@H](C)NC(=O)[C@H](CC(=O)O)NC(=O)[C@@H](NC(=O)[C@H](CCCCN)NC(=O)[C@H](CCSC)NC(=O)[C@H](CCC(=O)O)NC(=O)[C@H](C)N)[C@@H](C)O)[C@@H](C)O)C(=O)O,"PSMB8/Proteasome subunit beta type-9/Proteasome subunit beta type-10 (Homo sapiens, UniProt P28062+P28065+P40306)","proteasome digestion, substrate, LC-MS/MS",,"concentration not given, 20 h, pH 7.6, 37 °C",,parent peptide reduction,15 to 25%

# For quick reference, copied from above:
SMILES,target,assay,system,conditions,how to read,quantity,value
CC[C@@H]1CN2CCc3c([nH]c4cccc(OC)c34)[C@@H]2C[C@@H]1/C(=C\OC)C(=O)OC,CYP1A2,substrate,recombinant human enzyme,"2 µM, 60 min, pH 7.4",,remaining substrate,96%
CC[C@H](C)[C@H](NC(=O)[C@H](Cc1c[nH]cn1)NC(=O)[C@H](CC(N)=O)NC(=O)[C@H](Cc1ccccc1)NC(=O)[C@H](Cc1ccc(O)cc1)NC(=O)[C@H](Cc1ccc(O)cc1)NC(=O)[C@@H](NC(=O)[C@H](CCCNC(=N)N)NC(=O)CNC(=O)[C@H](CO)NC(=O)[C@H](CO)NC(=O)[C@H](CCCNC(=N)N)NC(=O)[C@H](CCC(=O)NCCOCCOCCOCCOC)NC(=O)[C@H](CCSC)NC(=O)[C@H](CCCNC(=N)N)NC(=O)[C@H](CCCCN)NC(=O)[C@H](CCC(=O)O)NC(=O)[C@H](Cc1c[nH]c2ccccc12)NC(=O)CNC(=O)[C@@H]1CCCN1C(=O)[C@@H]1CCCN1C(=O)[C@H](CC(C)C)NC(=O)[C@@H](N)CCCCN)C(C)C)C(=O)N[C@H](C(=O)N[C@@H](CC(N)=O)C(=O)N[C@@H](C)C(=O)N[C@@H](CO)C(=O)N[C@@H](CCC(N)=O)C(=O)N[C@@H](Cc1ccccc1)C(=O)N[C@@H](CCC(=O)O)C(=O)N[C@@H](CCCNC(=N)N)C(=O)N1CCC[C@H]1C(=O)N[C@@H](CO)C(=O)NCC(=O)O)[C@@H](C)O,PROK,"proteolysis, substrate, HPLC",,room temperature,"reference: PEGylated over non-PEGylated variant, negative = more stable",ln rate constant ratio,-1 ± 0.3
